Measured values gathered from unrelated publications.
Each line is one published result; not all experiments were run side by side. pEC50: −log10 of the molar value.
Effect on: parasite growth

| Structure (SMILES) | organism | cell line | setting | pEC50 |
| --- | --- | --- | --- | --- |
| CN(C)CCCNc1nccc(-c2c(-c3ccc(F)cc3)nn3cc(C(F)(F)F)ccc23)n1 | Trypanosoma brucei |  |  | 5.60 |
| Cc1cc(C(F)(F)F)c(C#N)c(SCC(=O)c2ccccc2)n1 | Leishmania infantum | mouse Macrophage | intracellular, amastigote | < 4.19 |
| O=C(O[C@H]1CN[C@H](C#Cc2cc3ncnc(Nc4ccc5c(ccn5Cc5cc(F)ccc5F)c4)c3s2)C1)N1CCOCC1 | Trypanosoma brucei |  |  | 5.70 |
| Cc1cc(C)c(C#N)c(SCC(=O)c2ccncc2)n1 | Leishmania infantum | mouse Macrophage | intracellular, amastigote | 4.34 |
| Cc1ccn2c(CNc3ccc(F)cc3)c(-c3ccccn3)nc2c1 | Leishmania infantum |  | intracellular, amastigote | 4.90 |
| Nc1cccc(-c2cc3c(Oc4cccc(O)c4)ncnc3[nH]2)c1 | Trypanosoma brucei |  |  | 5.96 |
| CN(c1ccc(F)cc1)c1c(-c2cc(Cl)ccn2)nc2ccccn12 | Leishmania infantum |  | intracellular, amastigote | 5.40 |
| Cc1cc(C)c(C#N)c(SCC(=O)N2CCOCC2)n1 | Leishmania infantum | mouse Macrophage | intracellular, amastigote | < 4.19 |
| C[C@H]1CN(c2n[nH]c3nc(N[C@H]4CC[C@H](NS(=O)(=O)CCC(F)(F)F)CC4)ncc23)CCO1 | Leishmania donovani | THP-1 | intracellular, amastigote | 5.86 |
| CCCCN(Cc1c(-c2ccccc2)nc2ccc(C)cn12)c1cccc(C(F)(F)F)c1 | Leishmania infantum |  | intracellular, amastigote | 5.60 |

A few entries again:
| Structure (SMILES) | organism | cell line | setting | pEC50 |
| --- | --- | --- | --- | --- |
| Cc1cc(C)c(C#N)c(SCC(=O)c2ccncc2)n1 | Leishmania infantum | mouse Macrophage | intracellular, amastigote | 4.34 |
| C[C@H]1CN(c2n[nH]c3nc(N[C@H]4CC[C@H](NS(=O)(=O)CCC(F)(F)F)CC4)ncc23)CCO1 | Leishmania donovani | THP-1 | intracellular, amastigote | 5.86 |
